Published values collected from several papers.
A part holds a random share of what one study measured.
UniProt P10721, sequence (whole entry, unmodified, looked up): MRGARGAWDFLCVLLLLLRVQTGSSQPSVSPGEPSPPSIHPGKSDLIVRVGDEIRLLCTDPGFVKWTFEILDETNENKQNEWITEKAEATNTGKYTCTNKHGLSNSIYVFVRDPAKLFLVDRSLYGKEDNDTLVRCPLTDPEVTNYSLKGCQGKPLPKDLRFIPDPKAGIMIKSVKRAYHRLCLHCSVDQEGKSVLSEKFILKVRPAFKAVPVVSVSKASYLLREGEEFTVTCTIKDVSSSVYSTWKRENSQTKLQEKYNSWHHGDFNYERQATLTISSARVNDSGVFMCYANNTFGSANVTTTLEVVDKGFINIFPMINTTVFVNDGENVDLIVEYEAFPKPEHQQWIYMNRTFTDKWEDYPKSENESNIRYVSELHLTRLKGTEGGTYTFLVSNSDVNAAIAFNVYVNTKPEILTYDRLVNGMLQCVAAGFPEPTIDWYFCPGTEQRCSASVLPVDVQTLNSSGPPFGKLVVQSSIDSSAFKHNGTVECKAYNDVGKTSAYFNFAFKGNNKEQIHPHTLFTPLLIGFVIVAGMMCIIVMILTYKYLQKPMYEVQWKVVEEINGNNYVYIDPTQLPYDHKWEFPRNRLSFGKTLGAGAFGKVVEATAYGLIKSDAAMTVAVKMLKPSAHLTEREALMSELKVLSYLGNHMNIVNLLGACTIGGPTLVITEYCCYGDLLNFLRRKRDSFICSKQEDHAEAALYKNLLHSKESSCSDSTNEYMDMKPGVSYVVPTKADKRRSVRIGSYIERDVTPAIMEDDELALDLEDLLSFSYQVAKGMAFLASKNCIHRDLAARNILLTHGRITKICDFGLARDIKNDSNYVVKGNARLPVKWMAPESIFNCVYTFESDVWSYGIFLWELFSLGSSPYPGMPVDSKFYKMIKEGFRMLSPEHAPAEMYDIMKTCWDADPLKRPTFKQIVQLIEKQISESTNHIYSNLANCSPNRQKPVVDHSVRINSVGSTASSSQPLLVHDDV
UniProt Q13976, sequence (whole entry, looked up): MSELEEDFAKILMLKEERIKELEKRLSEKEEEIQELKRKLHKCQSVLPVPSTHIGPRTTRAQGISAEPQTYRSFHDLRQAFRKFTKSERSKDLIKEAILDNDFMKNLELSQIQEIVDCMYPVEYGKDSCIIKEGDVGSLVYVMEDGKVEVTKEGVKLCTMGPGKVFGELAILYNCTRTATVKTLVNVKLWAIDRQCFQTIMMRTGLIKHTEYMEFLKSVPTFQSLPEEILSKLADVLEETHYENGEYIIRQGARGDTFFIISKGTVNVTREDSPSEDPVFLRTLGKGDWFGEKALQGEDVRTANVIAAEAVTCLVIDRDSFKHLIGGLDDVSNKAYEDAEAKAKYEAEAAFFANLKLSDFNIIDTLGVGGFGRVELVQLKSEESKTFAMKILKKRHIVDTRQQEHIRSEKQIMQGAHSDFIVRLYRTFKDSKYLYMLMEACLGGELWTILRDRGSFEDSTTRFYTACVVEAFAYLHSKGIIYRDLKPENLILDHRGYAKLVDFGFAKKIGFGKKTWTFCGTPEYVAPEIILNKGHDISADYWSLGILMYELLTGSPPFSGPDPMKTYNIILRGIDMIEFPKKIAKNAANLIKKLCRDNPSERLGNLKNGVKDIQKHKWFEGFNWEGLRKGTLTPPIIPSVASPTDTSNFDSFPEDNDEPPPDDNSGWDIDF
UniProt P22455, sequence (whole entry, looked up): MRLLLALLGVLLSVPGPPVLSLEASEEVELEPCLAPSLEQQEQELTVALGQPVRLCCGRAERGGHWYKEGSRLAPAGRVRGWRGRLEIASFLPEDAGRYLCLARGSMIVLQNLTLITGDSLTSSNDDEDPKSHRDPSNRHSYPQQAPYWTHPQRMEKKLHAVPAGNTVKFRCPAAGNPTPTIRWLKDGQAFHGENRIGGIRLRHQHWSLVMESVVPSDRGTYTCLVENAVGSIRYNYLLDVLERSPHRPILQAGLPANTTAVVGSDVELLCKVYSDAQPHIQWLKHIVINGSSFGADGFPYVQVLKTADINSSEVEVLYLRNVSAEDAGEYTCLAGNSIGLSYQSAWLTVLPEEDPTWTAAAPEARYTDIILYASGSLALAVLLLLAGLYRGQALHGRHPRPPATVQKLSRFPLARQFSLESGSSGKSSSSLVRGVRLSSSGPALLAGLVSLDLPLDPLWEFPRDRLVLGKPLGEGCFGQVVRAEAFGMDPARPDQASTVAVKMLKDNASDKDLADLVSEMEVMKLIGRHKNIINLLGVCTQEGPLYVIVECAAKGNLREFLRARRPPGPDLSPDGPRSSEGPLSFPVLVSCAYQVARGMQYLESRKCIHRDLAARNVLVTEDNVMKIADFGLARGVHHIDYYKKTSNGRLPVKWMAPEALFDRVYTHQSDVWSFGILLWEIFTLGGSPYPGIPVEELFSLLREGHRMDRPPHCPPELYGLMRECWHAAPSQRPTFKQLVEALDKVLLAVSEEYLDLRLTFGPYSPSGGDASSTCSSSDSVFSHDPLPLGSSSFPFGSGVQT
UniProt Q13177, sequence (whole entry, looked up): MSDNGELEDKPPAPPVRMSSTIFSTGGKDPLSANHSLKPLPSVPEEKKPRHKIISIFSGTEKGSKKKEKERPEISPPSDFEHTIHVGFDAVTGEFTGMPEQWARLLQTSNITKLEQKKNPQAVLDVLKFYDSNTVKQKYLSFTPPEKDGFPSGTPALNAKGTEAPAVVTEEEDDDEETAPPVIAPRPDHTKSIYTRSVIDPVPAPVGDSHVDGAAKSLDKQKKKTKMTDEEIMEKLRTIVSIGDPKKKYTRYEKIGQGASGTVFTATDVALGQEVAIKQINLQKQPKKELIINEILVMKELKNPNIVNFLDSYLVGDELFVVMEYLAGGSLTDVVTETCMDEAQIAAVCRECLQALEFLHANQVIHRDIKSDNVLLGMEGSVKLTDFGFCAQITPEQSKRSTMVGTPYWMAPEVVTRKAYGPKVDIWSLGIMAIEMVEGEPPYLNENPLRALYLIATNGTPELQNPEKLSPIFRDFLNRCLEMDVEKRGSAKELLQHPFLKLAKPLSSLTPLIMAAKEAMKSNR
UniProt O43293, sequence (whole entry, looked up): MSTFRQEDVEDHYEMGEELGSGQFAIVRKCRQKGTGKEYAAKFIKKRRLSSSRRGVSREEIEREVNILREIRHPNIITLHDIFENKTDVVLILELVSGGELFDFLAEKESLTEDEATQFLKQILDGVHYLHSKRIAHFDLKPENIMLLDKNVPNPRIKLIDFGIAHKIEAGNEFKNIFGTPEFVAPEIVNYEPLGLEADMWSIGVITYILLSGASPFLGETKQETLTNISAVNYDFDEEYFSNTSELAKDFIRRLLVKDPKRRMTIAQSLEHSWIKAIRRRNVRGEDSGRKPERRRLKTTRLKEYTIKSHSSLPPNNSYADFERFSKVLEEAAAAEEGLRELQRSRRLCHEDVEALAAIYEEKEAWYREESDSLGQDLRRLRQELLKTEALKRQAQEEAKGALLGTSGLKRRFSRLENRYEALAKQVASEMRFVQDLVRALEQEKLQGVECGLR
UniProt Q13164, sequence (whole entry, looked up): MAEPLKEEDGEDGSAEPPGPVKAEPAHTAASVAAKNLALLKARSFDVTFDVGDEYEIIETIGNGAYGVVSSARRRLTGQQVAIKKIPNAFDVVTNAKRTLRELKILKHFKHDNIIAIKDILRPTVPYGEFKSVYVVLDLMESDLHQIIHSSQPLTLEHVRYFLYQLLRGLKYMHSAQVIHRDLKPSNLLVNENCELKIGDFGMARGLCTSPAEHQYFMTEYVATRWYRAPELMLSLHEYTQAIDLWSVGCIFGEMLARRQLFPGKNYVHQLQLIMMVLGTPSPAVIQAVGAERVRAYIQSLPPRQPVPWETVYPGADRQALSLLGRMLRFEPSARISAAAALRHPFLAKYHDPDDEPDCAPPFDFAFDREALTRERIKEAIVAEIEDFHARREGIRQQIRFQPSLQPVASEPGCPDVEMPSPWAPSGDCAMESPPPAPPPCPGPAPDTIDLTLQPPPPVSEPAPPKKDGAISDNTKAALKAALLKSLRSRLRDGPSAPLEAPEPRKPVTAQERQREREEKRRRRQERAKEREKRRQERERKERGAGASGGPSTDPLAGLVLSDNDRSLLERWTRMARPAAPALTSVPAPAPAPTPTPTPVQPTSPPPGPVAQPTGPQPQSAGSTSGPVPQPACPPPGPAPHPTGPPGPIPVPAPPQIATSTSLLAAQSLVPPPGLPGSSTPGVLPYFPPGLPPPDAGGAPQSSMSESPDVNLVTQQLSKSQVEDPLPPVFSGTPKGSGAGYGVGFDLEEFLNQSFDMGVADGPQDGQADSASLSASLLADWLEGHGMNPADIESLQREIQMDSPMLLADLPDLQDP

Sample 1 — read-out: enzyme activity; mode: inhibitor; tested at: 0.5 µM; baseline: control
Target: Dual specificity protein kinase TTK (TTK, Homo sapiens, UniProt P33981)
Target sequence (P33981 1-857): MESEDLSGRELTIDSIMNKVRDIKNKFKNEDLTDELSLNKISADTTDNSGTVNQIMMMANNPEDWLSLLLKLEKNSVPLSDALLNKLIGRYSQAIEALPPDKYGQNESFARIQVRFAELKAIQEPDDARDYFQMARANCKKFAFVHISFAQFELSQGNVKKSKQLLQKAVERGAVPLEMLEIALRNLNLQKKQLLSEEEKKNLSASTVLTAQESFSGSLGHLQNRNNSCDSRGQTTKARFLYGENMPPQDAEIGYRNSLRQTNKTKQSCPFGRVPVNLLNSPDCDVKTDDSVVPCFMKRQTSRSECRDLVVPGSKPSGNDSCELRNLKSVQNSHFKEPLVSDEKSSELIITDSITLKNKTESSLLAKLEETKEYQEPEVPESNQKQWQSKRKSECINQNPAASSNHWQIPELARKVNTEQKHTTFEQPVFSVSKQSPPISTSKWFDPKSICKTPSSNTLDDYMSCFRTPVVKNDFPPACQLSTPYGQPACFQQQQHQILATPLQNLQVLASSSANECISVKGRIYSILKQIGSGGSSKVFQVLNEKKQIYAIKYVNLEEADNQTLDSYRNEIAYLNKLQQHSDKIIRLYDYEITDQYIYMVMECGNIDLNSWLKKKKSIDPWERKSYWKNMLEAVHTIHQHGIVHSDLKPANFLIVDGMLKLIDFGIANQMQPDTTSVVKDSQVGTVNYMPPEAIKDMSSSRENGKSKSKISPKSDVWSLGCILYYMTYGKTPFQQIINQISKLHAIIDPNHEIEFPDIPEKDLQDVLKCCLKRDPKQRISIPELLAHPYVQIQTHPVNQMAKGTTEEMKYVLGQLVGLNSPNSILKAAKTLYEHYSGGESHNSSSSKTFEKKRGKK
The remaining activity of CCCCc1c(-c2ccc(O)cc2)[nH]c2nccnc12 is reported as 91.6%.
The remaining activity of O=C1c2ccccc2-c2nc3nnnn3nc21 is reported as 125%.
With N#CC(c1ccnc(NCCc2cccnc2)n1)c1nc2ccccc2s1 (stereo not drawn) the remaining activity was 80.9%.
With CC(C)n1cnc2c(Nc3cccc(Cl)c3)nc(NCCO)nc21 the remaining activity was 82.5%.
NC(=O)c1cccc(-c2cc(Nc3ccc(OC(F)(F)F)cc3)ncn2)c1 has a remaining activity of 91.4%.
The remaining activity of O=C1NC(=O)/C(=C/c2ccc3c(c2)OC(F)(F)O3)S1 is reported as 102%.
For O=C(O)/C=C/c1cc(Br)c(Br)c(Br)c1Br, the remaining activity was 98.1%.
The remaining activity of COc1cc2c(Nc3ccc(Br)cc3F)ncnc2cc1OCC1CCN(C)CC1 is reported as 95.1%.
For Clc1ccc(Nc2nnc(Cc3ccncc3)c3ccccc23)cc1, the remaining activity was 108%.
For O=Nc1c(-c2c(O)[nH]c3ccccc23)[nH]c2ccccc12, the remaining activity was 68%.
With O=c1c(-c2ccc(F)cc2)c(-c2ccncc2)[nH]n1-c1ccc(Cl)cc1 the remaining activity was 110%.
The remaining activity of C[C@@H](N)[C@H]1CC[C@H](C(=O)Nc2ccncc2)CC1 is reported as 102%.
O=C(c1ccccc1)c1ccc(N2CCOCC2)cc1O has a remaining activity of 104%.
For CC(C)N(CCC(=O)c1ccc2ccccc2c1)Cc1ccccc1, the remaining activity was 96%.
The remaining activity of c1cc(-c2cnn3cc(-c4ccc(OCCN5CCCCC5)cc4)cnc23)ccn1 is reported as 82.8%.
The remaining activity of CCN(CC)CCCCN1c2ccccc2Oc2ccc(Cl)cc21 is reported as 104%.
For CNc1cc2c(Nc3cccc(Br)c3)ncnc2cn1, the remaining activity was 100%.
FC(F)(F)c1ccc(/C=C/c2nc(COc3ccc(CCCCn4ccnn4)cc3)co2)cc1 has a remaining activity of 111%.
COc1cc2c(N3CCN(C(=O)Nc4ccc(OC(C)C)cc4)CC3)ncnc2cc1OCCCN1CCCCC1 gave a remaining activity of 100%.
For Nc1nc(Nc2ccc(S(N)(=O)=O)cc2)nn1C(=S)Nc1c(F)cccc1F, the remaining activity was 60.6%.
NC(=O)c1ccc(-c2nc(-c3ccc4c(c3)OCCO4)c(-c3ccccn3)[nH]2)cc1 has a remaining activity of 105%.
With CC(C)(C)c1nc2c3cc[nH]c(=O)c3c3cc(F)ccc3c2[nH]1 the remaining activity was 65.3%.
N#C/C(=C(/N)SC1C=CC=CC1)c1cccc(C(O)c2ccncc2)c1 (stereo not drawn) has a remaining activity of 111%.

Sample 2 — read-out: enzyme activity; mode: inhibitor; tested at: 10 µM
Target: Calcium/calmodulin-dependent protein kinase type II subunit alpha (CAMK2A, Homo sapiens, UniProt Q9UQM7)
UniProt Q9UQM7, sequence (whole entry, looked up): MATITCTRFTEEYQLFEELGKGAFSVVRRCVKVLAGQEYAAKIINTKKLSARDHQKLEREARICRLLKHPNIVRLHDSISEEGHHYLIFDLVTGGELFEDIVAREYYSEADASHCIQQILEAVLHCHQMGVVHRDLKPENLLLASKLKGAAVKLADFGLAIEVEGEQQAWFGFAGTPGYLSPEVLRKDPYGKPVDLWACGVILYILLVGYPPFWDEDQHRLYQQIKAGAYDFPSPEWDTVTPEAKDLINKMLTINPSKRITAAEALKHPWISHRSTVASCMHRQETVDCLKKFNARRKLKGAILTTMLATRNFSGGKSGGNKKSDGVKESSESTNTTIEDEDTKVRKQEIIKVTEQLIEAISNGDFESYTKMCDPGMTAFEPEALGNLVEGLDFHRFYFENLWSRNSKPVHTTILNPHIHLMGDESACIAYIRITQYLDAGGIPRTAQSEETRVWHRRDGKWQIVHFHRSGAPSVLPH
With C/C1=C\C(=O)c2c(C)coc2C/C(C)=C/CC1 the inhibition was 13%.
With CO[C@H]1C[C@H](O[C@@H]2/C(C)=C/C[C@@H]3C[C@@H](C[C@]4(CC[C@H](C)[C@@H](C5CCCCC5)O4)O3)OC(=O)[C@@H]3C=C(C)/C(=N/O)[C@H]4OC/C(=C\C=C\[C@@H]2C)[C@]43O)O[C@@H](C)[C@@H]1O the inhibition was 3%.
For NC(CO)C(=O)NNCc1ccc(O)c(O)c1O (stereo not drawn), the inhibition was -10%.
COc1ccc(-c2coc3cc(OC)ccc3c2=O)cc1 has an inhibition of -20%.
With CCCC(=O)O[C@]1(C(=O)CCl)[C@@H](C)C[C@H]2[C@@H]3CCC4=CC(=O)C=C[C@]4(C)[C@@]3(F)C(=O)C[C@@]21C the inhibition was -13%.
The inhibition of Cc1cc(O)c2c(c1)C(=O)c1cccc(O)c1C2=O is reported as -9%.
The inhibition of CCc1c(Cl)c(O)c(Cl)c(O)c1C(=O)O[C@H]1[C@H](O)[C@H](OC)[C@H](OC/C2=C\C=C\C[C@H](O)/C(C)=C/[C@H](CC)[C@@H](O[C@@H]3OC(C)(C)[C@@H](OC(=O)C(C)C)[C@H](O)[C@@H]3O)/C(C)=C/C(C)=C/C[C@@H]([C@@H](C)O)OC2=O)O[C@@H]1C is reported as -11%.
COc1cc(C(O)C(=O)O)ccc1O (stereo not drawn) gave an inhibition of 38%.
With Nc1nc2c(ncn2[C@@H]2O[C@H](CO)[C@@H](O)[C@H]2O)c(=O)[nH]1 the inhibition was 25%.
With CC(=O)c1ccc2c(c1)N(CCCN1CCN(CCO)CC1)c1ccccc1S2 the inhibition was -6%.
For CCC1(c2ccccc2)C(=O)NCNC1=O, the inhibition was 0%.
CC(=O)Oc1ccc(C2(c3ccc(OC(C)=O)cc3)C(=O)Nc3ccccc32)cc1 gave an inhibition of 2%.
Cc1cccc(Nc2ccccc2C(=O)O)c1C has an inhibition of 6%.
For COc1ccc(C(Cl)=C(c2ccc(OC)cc2)c2ccc(OC)cc2)cc1, the inhibition was -7%.
For Nc1ccc2cc3ccc(N)cc3nc2c1, the inhibition was -11%.
CCOC(=O)[C@H](CCc1ccccc1)N[C@@H](C)C(=O)N(CC(=O)O)C1Cc2ccccc2C1 has an inhibition of 4%.
With CCC(C)(C)c1ccc(CC(C)CN2C[C@@H](C)O[C@@H](C)C2)cc1 (stereo partly drawn) the inhibition was -2%.
For O=C1C[C@@H](c2ccc(O[C@@H]3O[C@H](CO)[C@@H](O)[C@H](O)[C@H]3O[C@@H]3OC[C@](O)(CO)[C@H]3O)cc2)Oc2cc(O)ccc21, the inhibition was -20%.
CCc1cc2c(cc1CC)CC(NC[C@H](O)c1ccc(O)c3[nH]c(=O)ccc13)C2 has an inhibition of -4%.
For NCCC[C@](N)(C(=O)O)C(F)F, the inhibition was -1%.

Sample 3 — read-out: cell-free assay; technique: competition with immobilised ligand; tested at: 1 µM
SMILES: O=C(Nc1cccnn1)N1CC(C/C=C/c2cncc(Oc3ccc(C(F)(F)F)cn3)n2)C1
It gave 100% for remaining binding (AKT1 (Homo sapiens, UniProt P31749)).
For SBK3 (Homo sapiens, UniProt P0C264): remaining binding read 100%.
It gave 100% for remaining binding (Ribosomal protein S6 kinase alpha-2, C-terminal kinase domain (RPS6KA2, Homo sapiens, UniProt Q15349)).
For CLK1 (Homo sapiens, UniProt P49759): remaining binding read 100%.
The remaining binding was 95% (MET (Homo sapiens, UniProt P08581)).
It gave 67% for remaining binding (Tyrosine-protein kinase ABL1, phosphorylated (ABL1, Homo sapiens, UniProt P00519, M351T)).
The remaining binding was 100% (EPHB1 (Homo sapiens, UniProt P54762)).
It gave 100% for remaining binding (CDKL1 (Homo sapiens, UniProt Q00532)).
PRKCD (Homo sapiens, UniProt Q05655) — remaining binding: 100%.
It gave 88% for remaining binding (CSNK1A1 (Homo sapiens, UniProt P48729)).
HIPK1 (Homo sapiens, UniProt Q86Z02) — remaining binding: 88%.
For HIPK2 (Homo sapiens, UniProt Q9H2X6): remaining binding read 89%.
The remaining binding was 100% (LATS2 (Homo sapiens, UniProt Q9NRM7)).
For KIT (Homo sapiens, UniProt P10721): remaining binding read 80%.
The remaining binding was 81% (Tyrosine-protein kinase ABL1, phosphorylated (ABL1, Homo sapiens, UniProt P00519, Q252H)).
The remaining binding was 88% (KIT (Homo sapiens, UniProt P10721, L576P)).
CAMK2A (Homo sapiens, UniProt Q9UQM7) — remaining binding: 100%.
It gave 82% for remaining binding (ROCK1 (Homo sapiens, UniProt Q13464)).
FGFR4 (Homo sapiens, UniProt P22455) — remaining binding: 100%.
It gave 100% for remaining binding (TNK1 (Homo sapiens, UniProt Q13470)).
For PRKG1 (Homo sapiens, UniProt Q13976): remaining binding read 100%.
The remaining binding was 100% (BRSK1 (Homo sapiens, UniProt Q8TDC3)).
MAP3K11 (Homo sapiens, UniProt Q16584) — remaining binding: 100%.
NLK (Homo sapiens, UniProt Q9UBE8) — remaining binding: 100%.
The remaining binding was 100% (TNK2 (Homo sapiens, UniProt Q07912)).

Sample 4 — tested at: 1 µM
SMILES: CN1CCN(C(=O)c2ccc(NC(=O)Nc3ccc(N(C)c4ccnc(Nc5ccc(CS(C)(=O)=O)cc5)n4)cc3)cc2)CC1
For STK26 (Homo sapiens, UniProt Q9P289); competitive binding panel, refers to: MST4; baseline: vehicle: remaining binding read 11%.
For DAPK3 (Homo sapiens, UniProt O43293); competitive binding panel; baseline: vehicle: remaining binding read 100%.
CDKL5 (Homo sapiens, UniProt O76039); competitive binding panel; baseline: vehicle — remaining binding: 100%.
PAK2 (Homo sapiens, UniProt Q13177); competitive binding panel; baseline: vehicle — remaining binding: 50%.
The remaining binding was 99% (EPHA5 (Homo sapiens, UniProt P54756); competitive binding panel; baseline: vehicle).
It gave 62% for remaining binding (CSK (Homo sapiens, UniProt P41240); competitive binding panel; baseline: vehicle).
The remaining binding was 54% (STK38 (Homo sapiens, UniProt Q15208); competitive binding panel, refers to: NDR1; baseline: vehicle).
CSNK1A1L (Homo sapiens, UniProt Q8N752); competitive binding panel; baseline: vehicle — remaining binding: 100%.
MAP2K5 (Homo sapiens, UniProt Q13163); competitive binding panel, refers to: MEK5; baseline: vehicle — remaining binding: 0.1%.
The remaining binding was 82% (MAP2K6 (Homo sapiens, UniProt P52564); competitive binding panel, refers to: MEK6; baseline: vehicle).
For MAPK10 (Homo sapiens, UniProt P53779); competitive binding; JNK3: remaining binding read 8.6%.
The remaining binding was 100% (MAPK7 (Homo sapiens, UniProt Q13164); competitive binding panel, refers to: ERK5; baseline: vehicle).
The remaining binding was 70% (IKBKB (Homo sapiens, UniProt O14920); competitive binding; IKK-beta).
SRPK1 (Homo sapiens, UniProt Q96SB4); competitive binding panel; baseline: vehicle — remaining binding: 2.3%.
For HUNK (Homo sapiens, UniProt P57058); competitive binding panel; baseline: vehicle: remaining binding read 35%.
DCLK1 (Homo sapiens, UniProt O15075); competitive binding panel, refers to: DCAMKL1; baseline: vehicle — remaining binding: 97%.

A few entries again (sample 3):
It gave 100% for remaining binding (Ribosomal protein S6 kinase alpha-2, C-terminal kinase domain (RPS6KA2, Homo sapiens, UniProt Q15349)).
For CLK1 (Homo sapiens, UniProt P49759): remaining binding read 100%.
The remaining binding was 95% (MET (Homo sapiens, UniProt P08581)).
It gave 67% for remaining binding (Tyrosine-protein kinase ABL1, phosphorylated (ABL1, Homo sapiens, UniProt P00519, M351T)).
The remaining binding was 100% (EPHB1 (Homo sapiens, UniProt P54762)).
It gave 100% for remaining binding (CDKL1 (Homo sapiens, UniProt Q00532)).
PRKCD (Homo sapiens, UniProt Q05655) — remaining binding: 100%.
It gave 88% for remaining binding (CSNK1A1 (Homo sapiens, UniProt P48729)).
HIPK1 (Homo sapiens, UniProt Q86Z02) — remaining binding: 88%.
For HIPK2 (Homo sapiens, UniProt Q9H2X6): remaining binding read 89%.
The remaining binding was 100% (LATS2 (Homo sapiens, UniProt Q9NRM7)).
For KIT (Homo sapiens, UniProt P10721): remaining binding read 80%.
The remaining binding was 81% (Tyrosine-protein kinase ABL1, phosphorylated (ABL1, Homo sapiens, UniProt P00519, Q252H)).
